Experimental data collected from several papers.
Compare with care: the assays were run in different laboratories. ± gives the spread as reported.

SMILES	assay	system	conditions	half-life [h]
Cn1cncc1[C@@](N)(c1ccc(Cl)cc1)c1ccc2c(c1)c(-c1cccc(Cl)c1)cc(=O)n2C	non-compartmental analysis	human, plasma	oral, 300 mg/m^2, median, expanded cohort, first cycle dose	3.51
CCCn1cc(C)c2c(=O)[nH]c(-c3cc(S(=O)(=O)N4CCN(CC)CC4)ccc3OCC)nc21	LC-MS/MS	human, plasma	100 mg, added: alcoholic beverage 0.5 g/kg	4.62 ± 1.1
CC(C)(Sc1ccncc1-c1ccc(C#N)c2ccccc12)C(=O)O		human, plasma	oral, 10 mg once daily, added: febuxostat 40 mg	17.3
CO[C@@H]1[C@H](OC(=O)N2CC(CCN3CCOCC3)C2)CC[C@]2(CO2)[C@H]1[C@@]1(C)O[C@@H]1CC=C(C)C		humans, plasma	subcutaneous, 0.6 mg twice weekly, fifth dose	1.26 ± 0.55
CN(C)C(=O)c1cc2cnc(Nc3ccc(N4CCNCC4)cn3)nc2n1C1CCCC1		human, advanced solid tumours, plasma	oral	26.6 ± 14
O=C(O)CCC(=O)O.[2H]C([2H])([2H])Oc1cc(C)c2[nH]ccc2c1CN1CC[C@@H](C2CC2)C[C@H]1c1ccc(C(=O)O)cc1		human, plasma	50 mg twice daily, day 10, multiple ascending dose, mean	26.6
COc1cc([C@@H]2Oc3ccc([C@H]4Oc5cc(O)cc(O)c5C(=O)[C@@H]4O)cc3O[C@H]2CO)ccc1O		OATP1B1/1B3 humanized mice, plasma	oral gavage, 500 mg/kg silymarin	0.36
N#Cc1cc(NC(=O)[C@H]2c3ccccc3C(=O)N(CC(F)(F)F)[C@@H]2c2cccnc2)ccc1F		human, plasma	oral, 600 mg, median	19.8
CN(C(=O)C(C)(C)c1cc(C(F)(F)F)cc(C(F)(F)F)c1)c1cnc(N2C[C@H]3COCCN3C[C@H]2CO)cc1-c1ccc(F)cc1[14CH3]	item: total radioactivity	human, whole blood	oral, 120 mg	11.6
Cc1cc(/C=C/C#N)cc(C)c1Nc1ccnc(Nc2ccc(C#N)cc2)n1		human, haemodialysis patients, plasma	oral, fixed-dose combination	28.9
COc1ccc([C@@H](O)c2cc(-c3ncnc4cc(N5CCOCC5)ccc34)c(F)cc2Cl)nn1		human	oral, 200 mg twice daily, multiple doses	6.26
CC(C)n1nc(-c2ccc3oc(N)nc3c2)c2c(N)ncnc21		human patients, plasma	oral, 4 mg once daily, cycle 1 day 15, dose escalation	5.2
Nc1ccn([C@@H]2O[C@H](CO)[C@@H](O)C2(F)F)c(=O)n1	HPLC-UV	human, plasma	intravenous, 800 mg/m^2, median, after paricalcitol	3.71
Cc1nc(Nc2ncc(C(=O)Nc3c(C)cccc3Cl)s2)cc(N2CCN(CCO)CC2)n1		human patients	oral, 65 mg/m^2, day 42	5.7 ± 2.1
Cc1cc(C)c(CNC(=O)c2cc(Cl)c3c(c2C)O[C@@](C)([C@H]2CC[C@H](N(C)C)CC2)O3)c(=O)[nH]1	item: total radioactivity	human male, whole blood	oral, 200 mg	11.8
CC(C)NC(=O)COc1cccc(-c2nc(Nc3ccc4[nH]ncc4c3)c3ccccc3n2)c1		human male, plasma	oral, 200 mg once daily, day 12, fed, geometric mean, added: dabigatran etexilate	~10.4
C#C[C@]1(COP(=O)(O)OP(=O)(O)O)O[C@@H](n2cnc3c(N)nc(F)nc32)C[C@@H]1O	item: islatravir triphosphate	human, PBMC	oral, 30 mg single dose	105
CCN1CCN(Cc2ccc(Nc3ncc(F)c(-c4cc(F)c5nc(C)n(C(C)C)c5c4)n3)nc2)CC1		healthy human, fasted	oral, 150 mg, 3 x 50 mg tablets	25.6
Cc1ccc(C(=O)N(CCCN)C(c2nc3snc(C)c3c(=O)n2Cc2ccccc2)C(C)C)cc1 (centres unmarked)		human, AML patients	intravenous	~17
C=CC(=O)N(C)CCOc1c(N)ncnc1-c1cc(F)cc(NC(=O)c2ccc(C3CC3)cc2F)c1C		human, whole blood	oral, 100 mg, single ascending dose, median	0.91
COc1ncc(-c2nc3c(n2C(C)C)[C@H](c2ccc(Cl)cc2)N(c2cc(Cl)cn(C)c2=O)C3=O)c(OC)n1	LC-MS/MS, noncompartmental	human, plasma	oral, 15 mg, low-dose, median	6
Cc1cc(OCCOCCC(F)(F)P(=O)(O)O)ccc1CCc1cnc2c(N)nc3cc(CCC(=O)O)ccc3c2c1		human, serum	intratumoral, 600 µg every 2 weeks, cycle 1 day 1	30.3
N#CCNC(=O)c1ccc(-c2ccnc(Nc3ccc(N4CCOCC4)cc3)n2)cc1		healthy human volunteers, plasma	oral, day 4, without rifampin	5.74
CCOc1c([C@H](C)n2nc(C)c3c(N)ncnc32)cc(Cl)c(F)c1[C@@H]1CNC(=O)C1		human patients, plasma	oral, 15 mg once daily, cycle 1 day 15, monotherapy	11.5 ± 4.6

SMILES	assay	system	conditions	half-life [h]
CC(C)[C@H](N)C(=O)NCCCS(=O)(=O)O		human, plasma	oral, 340 mg once daily days 8-14, day 14, fasted, capsule	1.13
O=C(COc1ccc(Cl)cc1)NC12CC(c3nnc([C@H]4C[C@@H](OC(F)(F)F)C4)o3)(C1)C2		healthy human volunteers fasted, plasma	oral, 15 mg single dose, geometric mean	31.7
CC(C)n1c(Nc2cccnc2)nc2cnc(Nc3ccc(N4CCN(C)CC4)cc3)nc21		human, male, plasma	oral, 150 mg, day 15, added: rifampin 600 mg daily	31.4
C[C@H](Oc1ccc(Br)cc1-c1ccon1)C(=O)O	LC-MS/MS, non-compartmental	human, plasma	600 mg once daily, day 1, multiple ascending dose, mean	4.67
C[C@@H](Oc1ccc(S(C)(=O)=O)cc1C(=O)N1C[C@@H]2C[C@]2(c2cc(C(F)(F)F)on2)C1)C(F)(F)F		elderly humans, plasma	oral, 50 mg once daily, single dose, geometric mean	43.8
NCCCS(=O)(=O)O		human, plasma	oral, 256.5 mg once daily, day 1, capsule, fed	10.1
COC(=O)N[C@H](C(=O)N1CCC[C@H]1c1nc2cc([C@H]3CC[C@H](c4cc5nc([C@@H]6CCCN6C(=O)[C@@H](NC(=O)OC)[C@@H](C)OC)[nH]c5cc4F)N3c3cc(F)c(N4CCC(c5ccc(F)cc5)CC4)c(F)c3)c(F)cc2[nH]1)[C@@H](C)OC		healthy human subjects, plasma	oral, single dose alone	11.3
C#C[C@]1(COP(=O)(O)OP(=O)(O)OP(=O)(O)O)O[C@@H](n2cnc3c(N)nc(F)nc32)C[C@@H]1O	item: intracellular triphosphate	human, PBMC		116 to 211
Cc1noc(C)c1-c1cc(C(O)(c2ccccn2)c2ccccn2)c2nc(C3CC3)[nH]c2c1		human patients, plasma	oral, 4 mg, cycle 1 day 8, monotherapy	16.1
CC#CC(=O)N1CC[C@@H](n2c(=O)n(-c3ccc(Oc4ccccc4)cc3)c3c(N)ncnc32)C1		human, fasting, plasma	oral, 320 mg once daily, cycle 1 day 28	~4.7
C[C@H]1[C@H](OC(=O)CCC(=O)O)O[C@@H]2O[C@@]3(C)CC[C@H]4[C@H](C)CC[C@@H]1[C@@]24OO3		human, both sexes, plasma	oral, dose not given, fixed-dose combination	0.48
CN[C@@H](C)C(=O)N[C@H]1CN(S(=O)(=O)c2cccc(S(=O)(=O)N3CC[C@H]4CC[C@@H](C(=O)NC(c5ccccc5)c5ccccc5)N4C(=O)[C@@H](NC(=O)[C@H](C)NC)C3)c2)CC[C@H]2CC[C@@H](C(=O)NC(c3ccccc3)c3ccccc3)N2C1=O	LC-MS/MS, noncompartmental	human, plasma	45 mg, cycle 1 day 1	3.38 ± 1.84
NC[C@@]1(CC(=O)O)[C@@H]2CC[C@H]3C[C@@H]2[C@@H]1C3		human, severe renal impairment, plasma	oral, 20 mg single dose, geometric mean	11.3
OC[C@H]1O[C@@H](c2ccc(Cl)c(Cc3ccc(O[C@H]4CCOC4)cc3)c2)[C@H](O)[C@@H](O)[C@@H]1O		human, plasma	oral, steady state, EV treatment	6.68 ± 0.81
CO[C@H]1C[C@@H]2CC[C@@H](C)[C@@](O)(O2)C(=O)C(=O)N2CCCC[C@H]2C(=O)O[C@H]([C@H](C)C[C@@H]2CC[C@@H](OC(=O)NCCOCCOCCOCCOCCOCCOCCOCCOCCC(=O)N3CCc4cc(Cn5nc(-c6ccc7oc(N)nc7c6)c6c(N)ncnc65)ccc4C3)[C@H](OC)C2)C[C@@H](O)[C@H](C)/C=C(\C)[C@@H](O)[C@@H](OC)C(=O)[C@H](C)C[C@H](C)/C=C/C=C/C=C/1C		human patients, plasma	intravenous, 10 mg, cycle 1 day 15, weekly dosing, 1 h infusion, arithmetic mean	4.2
CC(C)c1nc(N(C)S(C)(=O)=O)nc(-c2ccc(F)cc2)c1/C=C/[C@@H](O)C[C@@H](O)CC(=O)O		human, plasma	oral, 10 mg, added: vepdegestrant 200 mg	20.5 ± 5.08
CC1(COc2ccc3c(c2)ncn3-c2ccc3cccc(N4CCC(N)CC4)c3n2)COC1		human patients, recurrent/progressive HGG or DIPG, serum	oral, 220 mg/m^2, day 1, median	7.9
C#Cc1cccc(Nc2ncnc3cc(OCCOC)c(OCCOC)cc23)c1		human, plasma	oral, 100 mg	15 to 19
COC(=O)N[C@@H](C)CNc1nccc(-c2cn(C(C)C)nc2-c2cc(Cl)cc(NS(C)(=O)=O)c2F)n1		human patients, plasma	oral, 450 mg twice daily, day 1, single dose, geometric mean, added: binimetinib 45 mg once daily	3.98
CCCCCCCOc1ccc(CCC(N)(CO)CO)cc1C(F)(F)F.Cl		healthy human males, plasma	oral, 0.5 mg, day 21	386
Cc1nc2ccc(F)cc2n1-c1nc(N)c(F)c(Nc2ccc(C(F)(F)F)cc2)n1		human patients, plasma	oral, 300 mg twice weekly, cycles 1 and 2 pooled	9.25
Cc1nc(-c2ccc(OCC(C)C)c(C#N)c2)sc1C(=O)O		human, plasma	oral, 20 mg once daily, geometric mean, added: verinurad 5 mg	6.56
CCN1CCN(Cc2ccc(Nc3ncc(F)c(-c4cc(F)c5nc6n(c5c4)[C@H](C)CCC6)n3)nc2)CC1		human, plasma	400 mg single dose, mean	39.9

A few entries again:
SMILES	assay	system	conditions	half-life [h]
CN(C)C(=O)c1cc2cnc(Nc3ccc(N4CCNCC4)cn3)nc2n1C1CCCC1		human, advanced solid tumours, plasma	oral	26.6 ± 14
O=C(O)CCC(=O)O.[2H]C([2H])([2H])Oc1cc(C)c2[nH]ccc2c1CN1CC[C@@H](C2CC2)C[C@H]1c1ccc(C(=O)O)cc1		human, plasma	50 mg twice daily, day 10, multiple ascending dose, mean	26.6
COc1cc([C@@H]2Oc3ccc([C@H]4Oc5cc(O)cc(O)c5C(=O)[C@@H]4O)cc3O[C@H]2CO)ccc1O		OATP1B1/1B3 humanized mice, plasma	oral gavage, 500 mg/kg silymarin	0.36
